Measurements gathered from unrelated publications.
Each line is one published result; not all experiments were run side by side.
Target: Serine/threonine-protein kinase TAO1 (TAOK1, Homo sapiens, UniProt Q7L7X3)
Residues used in one study (Q7L7X3 1-1001): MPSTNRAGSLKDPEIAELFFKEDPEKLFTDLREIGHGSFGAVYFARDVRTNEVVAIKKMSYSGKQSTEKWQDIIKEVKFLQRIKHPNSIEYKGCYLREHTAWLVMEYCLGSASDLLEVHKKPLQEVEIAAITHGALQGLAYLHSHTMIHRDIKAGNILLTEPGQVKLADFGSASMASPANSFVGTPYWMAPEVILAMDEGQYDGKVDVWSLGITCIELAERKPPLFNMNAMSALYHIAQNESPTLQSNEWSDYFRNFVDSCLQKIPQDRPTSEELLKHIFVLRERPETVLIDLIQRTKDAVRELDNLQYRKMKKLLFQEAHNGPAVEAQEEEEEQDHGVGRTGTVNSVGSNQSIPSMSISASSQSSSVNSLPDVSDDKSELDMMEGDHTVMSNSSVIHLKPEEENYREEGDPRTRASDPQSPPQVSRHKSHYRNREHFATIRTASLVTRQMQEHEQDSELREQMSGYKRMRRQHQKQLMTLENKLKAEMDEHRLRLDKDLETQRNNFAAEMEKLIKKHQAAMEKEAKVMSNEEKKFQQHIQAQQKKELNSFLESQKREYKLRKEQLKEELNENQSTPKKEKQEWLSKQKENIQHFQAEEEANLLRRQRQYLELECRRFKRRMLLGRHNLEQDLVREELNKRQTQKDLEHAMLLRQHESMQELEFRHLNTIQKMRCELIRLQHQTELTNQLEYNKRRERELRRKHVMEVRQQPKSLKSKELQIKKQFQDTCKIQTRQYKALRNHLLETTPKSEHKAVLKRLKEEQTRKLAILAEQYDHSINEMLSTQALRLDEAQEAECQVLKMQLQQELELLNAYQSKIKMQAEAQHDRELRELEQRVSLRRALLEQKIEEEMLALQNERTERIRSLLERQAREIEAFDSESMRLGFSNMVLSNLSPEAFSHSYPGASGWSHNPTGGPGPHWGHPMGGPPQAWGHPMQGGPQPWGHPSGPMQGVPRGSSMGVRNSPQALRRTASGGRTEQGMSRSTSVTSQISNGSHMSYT

SMILES = CCN1CCN(Cc2ccc(C(=O)Nc3ccc(C)c(NCc4cnc5[nH]ccc5c4OC)c3)cc2C(F)(F)F)CC1; test = binding, competition with immobilised ligand; conditions = 1 µM; endpoint = remaining binding; result = 46%
SMILES = COc1c(OCCCN2CCOCC2)ccc2c1N=C(NC(=O)c1cnc(N)nc1)N1CCN=C21; test = kinase activity, inhibitor; conditions = 1 µM; how to read = relative to: untreated control; endpoint = remaining activity; result = 116%
SMILES = O=C(Cc1ccc(OCc2ccccc2)cc1)NC1(C(=O)O)CCN(C(=O)c2ccc(-c3cccc(Cl)c3)cc2)CC1; test = enzyme activity, inhibitor; conditions = 10 µM; endpoint = activity vs control; result = 63%
SMILES = CC(C)=CC1OC(C)(C)C2C=C3C(=O)C(Cl)=CC(O)C3C3C(O)C4OC4C(=O)C132 (stereo not shown); test = cell-free assay, competition with immobilised ligand; conditions = 10 µM; endpoint = remaining binding; result = 90%
SMILES = CNC1C[S+]2CC[S+]3CC[S+](C1)[Ru-4]321([N]=C=S)[n]2c3ccc(OC)cc3c3c4c(c5cc(F)c[n+]1c5c32)C(=O)NC4=O (stereo not shown); test = KinomeScan; conditions = 0.1 µM; how to read = relative to: untreated; endpoint = remaining binding; result = 84%
SMILES = Nc1ncc2c(n1)-c1c([nH]c3ccc(C4=CCOCC4)cc13)CCC2; test = binding, competition with immobilised ligand; conditions = 1 µM; endpoint = remaining binding; result = 100%
SMILES = C=CC(=O)N1CCc2ccc(-n3c(=O)ccc4cnc5ccc(-c6cnn(C)c6)cc5c43)cc21; test = KINOMEscan; conditions = 1 µM; how to read = relative to: DMSO control; endpoint = remaining binding; result = 100%
SMILES = NC(=O)C[C@H]1CCc2sc3ncnc(O[C@H]4CC[C@H](N5CCOCC5)CC4)c3c21; test = enzyme activity, inhibitor; conditions = 10 µM; endpoint = inhibition; result = -2%
SMILES = COc1ccc(O)cc1-c1c[nH]c2ncc(-c3cncc(C(=O)N(C)C)c3)cc12; test = binding, competition with immobilised ligand; conditions = 0.2 µM; endpoint = inhibition; result = 11.2%
SMILES = CCn1cc(C(=O)O)c(=O)c2c(N)c(F)c(NC3CCCCC3)cc21; test = kinase activity; conditions = 0.1 µM, with: ATP at Km; endpoint = inhibition; result = 6.5%
SMILES = Cc1cnc2nc1Nc1cccc(c1)COC/C=C/COCc1cc(ccc1OCCN1CCOCC1)N2; test = binding, competition with immobilised ligand; conditions = 0.1 µM; endpoint = remaining binding; result = 90%
SMILES = Cc1ccc(-c2c(/C=C(\C#N)C(=O)NC(C)C)n(CCCO)c3ncnc(N)c23)cc1; test = cell-free assay, competition with immobilised ligand; conditions = 1 µM; endpoint = remaining binding; result = 100%
SMILES = COc1cc(Nc2nc(C)cc(-c3cnn4nc(OC)ccc34)n2)cc(C(F)(F)F)c1; test = binding, competition with immobilised ligand; conditions = 1 µM; endpoint = remaining binding; result = 96%
